Measurements from different studies.
Parts stem from different laboratories: compare values within a part only. Changes are numbered by the printed parent chain.

Series 1 — method: RNA Bind-n-Seq; molecule type: RNA; medium: in vitro; tested at: 365 nM; reference: no-protein control; direction: higher = stronger binding; endpoint: RBNS enrichment (R)
Target: RNA binding protein fox-1 homolog 2, RRM domain, GST-SBP tag (RBFOX2, Homo sapiens, UniProt O43251-10, residues 100-194)
Notes: natural RNA segment, single round, ends assumed
Shared flanks, not repeated: GGGAGUUCUACAGUCCGACGAUC … UGGAAUUCUCGGGUGCCAA
Construct (chain): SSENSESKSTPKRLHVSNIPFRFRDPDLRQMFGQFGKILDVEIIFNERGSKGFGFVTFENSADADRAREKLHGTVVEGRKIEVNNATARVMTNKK
Oligonucleotide = CAAACAUGUAUUCUGUGCGAUAACUUGUGCCUGCGACAAGUGUUAAUCUUGGGAUCGUAUUUUUAUAUCAUAUUCACAUACUUGUUUUUUUAAUUGGUGUUAGAUGACAU; result = 2.05
Oligonucleotide = AUUCUUCAUUGGAUGUUUAAAGCAUUUACUCCAUUGUUAAGGUUGGCAUCAUAUAGUCAGUUACUGACAUGGCAUAAGACAGCAUGAAACUUUACCACAUUUAUAAAUAU; result = 12.8
Oligonucleotide = AGGUACUGCCCAUUGGGAGAUGGGGACAUUGGGACCUCAGCAAUGAAGAACCCUUGUGAAGUAACCAGGAGGAAUGGGGAAAGAAGCAAGUUGGGCAGGAUAUGGCCUAC; result = 0.818
Oligonucleotide = CAGCCAUAGAGAUUUUAAUUAGCCCAACUAGAAGCCUAGUGUGUGUGCUUUCUUAAUGUGUGUGCCAAUGGUGGAUCUUUGCUACUGAAUGUGUUUGAACAUGUUUUGAG; result = 3.6
Oligonucleotide = GCCGGGCGCGGUGGCUCACGCCUGCAAUCCCAACACAUUGGGGGGUCGAGGCGGACGGAUCACUUUGAGCCCAGGAGUUCAAGACCAGCCUGGGCAACAUGGCGAAACCU; result = 0.249
Oligonucleotide = UCUCUUCCAUCUUCUGUGAGUAGGGUUUGGCUUUGUAUCCCUCCCUUGAUUGUUUCCAUACCACUCAAGCCUUUGCUUGAAGAACAUGCUCAAUAAAUGUUUCAUGACUG; result = 0.568
Oligonucleotide = GGAGCCUGCCGAUCCUAGCUCAGAGAGGCUGCCUUCAUGGCCUGUUACUCCAGCUAACGCUUUGAUUCCAACACUAGCAUUUGUCACGUUAGGACGAACUGAAACGGUAC; result = 0.249
Oligonucleotide = UGAGCCCAAAACGGGAAUAUUAGUUUUAUGUCGGAGGUGUGUUCCAAGUUUGUCAAUGAGGCUAUAGCCUCAAGAAGAUGCCAUCUGCCUGAAUGUUGACAUGCCAGCGG; result = 0.63
Oligonucleotide = GGGGAAAGGAAGGAAGUGCAUGUUUGGGAACUGGCAUUACUGGAACUAAUGGUUUUAACCUCCUUAACCACCAGCAUCCCUCCUCUCCCCAAGGUGAAGUGGAGGGUGCU; result = 3.83
Oligonucleotide = UCAUGGGUGCUCCUGGCAACUUGCUUGAGGAAGAUAGGUCAGAAAGCAGAGUGGACCAACCGUUCAAUGUUUUACAAGCAAAACAUACACUAAGCAUGGUCUGUAGCUAU; result = 1.32
Oligonucleotide = GAGAGCUCGUGUUUACUAAGCAAGCUUUUGUGUUUAUCUUCCUUAUUUUUACUGAACAUCUUCAGUACCUGGGUAAUGGAAACCCACUCUUUUUUCAUUGUAAUGACUUU; result = 0.598
Oligonucleotide = GCCAUAUCUCCUGUGGCACCUAGGCAGCCCAAUCUCAGGGUUAGUUUUUUCCAGGGAAAACAAUGUGCUUCCUCAUGUUCAUGCCAAAUUGCACAAAGUGUAGGUAUUCA; result = 0.262

Series 2 — method: DHFR PCA, deep sequencing; medium: yeast; with: (+)-ABA 17 µM; reference: wild-type fitted maximum; direction: higher = stronger binding; endpoint: relative binding score
Target: ABI1, truncated, D143A, DHFR fusion (Arabidopsis thaliana)
Notes: methotrexate growth selection, single substitutions
Starting sequence: PYL1, truncated, DHFR fusion (Arabidopsis thaliana); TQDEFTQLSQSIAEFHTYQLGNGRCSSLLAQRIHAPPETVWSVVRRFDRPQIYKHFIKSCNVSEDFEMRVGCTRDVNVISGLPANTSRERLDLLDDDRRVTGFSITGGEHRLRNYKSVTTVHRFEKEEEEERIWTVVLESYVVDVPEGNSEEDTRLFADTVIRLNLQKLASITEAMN
Variant = Y115C; result = 14.9%
Variant = Y141M; result = -3.34%
Variant = W41A; result = -21.4%
Variant = M68S; result = 46.5%
Variant = D95A; result = 12.7%
Variant = W134F; result = 106%
Variant = H55D; result = 68.7%
Variant = F157W; result = 2.39%
Variant = A35R; result = -9.54%
Variant = T160S; result = 52.5%
Variant = F124Q; result = 76.3%
Variant = V43A; result = 33.7%

Series 3 — method: protein binding microarray; molecule type: double-stranded DNA, one strand shown; medium: in vitro; tested at: not given; reference: not given; direction: higher = stronger binding; endpoint: E-score
Target: Histone acetyltransferase KAT6A, winged helix 1, GST fusion (KAT6A, Homo sapiens, UniProt Q92794, residues 1-85)
Notes: 8-mer, flanks averaged, mean of 2 arrays, mostly near background
Construct (chain): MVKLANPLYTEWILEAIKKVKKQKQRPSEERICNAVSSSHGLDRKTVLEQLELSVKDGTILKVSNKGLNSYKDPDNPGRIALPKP
Oligonucleotide = ACGTCCGC; result = 0.329
Oligonucleotide = ACGTGACT; result = -0.108
Oligonucleotide = CATTTAAA; result = -0.124
Oligonucleotide = GCGCGGAA; result = 0.392
Oligonucleotide = AACAGGTT; result = -0.197
Oligonucleotide = GAGCAATC; result = -0.036
Oligonucleotide = AAGGAGAT; result = -0.116
Oligonucleotide = GTTGTAAA; result = -0.106
Oligonucleotide = CACTACCC; result = -0.0119
Oligonucleotide = ACTAATCA; result = -0.0974
Oligonucleotide = AGCTCACC; result = -0.0043
Oligonucleotide = ACTGCCGG; result = 0.312
Oligonucleotide = CAGAGCAA; result = -0.236
Oligonucleotide = TAGAGAGA; result = -0.181
Oligonucleotide = ACGACAAA; result = -0.192
Oligonucleotide = GTAATACA; result = 0.0266
Oligonucleotide = CTTGGTAC; result = 0.000105
Oligonucleotide = CAGTTCGA; result = -0.15
Oligonucleotide = CCTGGCAA; result = -0.185
Oligonucleotide = CACGACAC; result = 0.00715
Oligonucleotide = GTCAGCAC; result = 0.081
Oligonucleotide = TCTCCGCA; result = 0.161
Oligonucleotide = ACAGATTG; result = -0.115
Oligonucleotide = CTTATAAC; result = -0.181
Oligonucleotide = GAAAAGGA; result = -0.219

Series 4 — method: RNA Bind-n-Seq; molecule type: RNA; medium: in vitro; tested at: 200 nM; notes: whole 134-nt RNA, ends assumed; with: 150 mM LiCl; reference: input library; direction: higher = stronger binding; endpoint: log2 enrichment; each molecule: 7-deaza-guanosine replaces G
Target: Fragile X messenger ribonucleoprotein 1, C-terminal low-complexity region (Fmr1, Mus musculus, UniProt P35922)
Shared flanks, not repeated: GGGAGUUCUACAGUCCGACGAUC … UGGAAUUCUCGGGUGUCAAGG
Oligonucleotide = AGUCCUGUGCUACACAUCGUAUGUACCGAAUCGGGGUUUUUGGGGAAAGGGGUGGGGAAAGUAUUAUGUUACGCCGUUCGGAUCUGCACU; result = -1.11
Oligonucleotide = ACCAUGCAGGUGGGCAUCUUUGGGAAGUGGGGCAAGGGAAAGAUAGGGAGGGGGGUAACACUUUGGGAACAGGUGGUCCCAGGUCGUUUC; result = 0.638
Oligonucleotide = CCUGUGCUACACAUCGUAUGUACCGAAUCGGGAAAAAGGGUUUUUUUGGGUUUUUUUGGGAAAGUAUUAUGUUACGCCGUUCGGAUCUGC; result = -2.56
Oligonucleotide = UGGGAGGUGGAUUUUGUUUAUUUUUUUAGCUCAUUUCCAGGGGUGGGAAUUUUUUUUUAAUAUGCGUCAUGAAUAAAGUUGUUUUUGAAA; result = 0.0692
Oligonucleotide = GUCCUGUGCUACACAUCGUAUGUACCGAAUCGGAAAAAAGGAAAAAAGGGAAAAAAGGGAAAGUAUUAUGUUACGCCGUUCGGAUCUGCA; result = -0.282
Oligonucleotide = CCUGCUUUUGGGGGUGACCGCCGGAGCGCGGCGUGAGCCCUCCCCCUUGGGAUCCCGCAGCUGACCAGUCGCGCUGACGGACAGACAGAC; result = -3.74
Oligonucleotide = CAAGUCCUGUGCUACACAUCGUAUGUACCGAAUCGGUUUUUUUGGUUUGGUUUGGAAAGUAUUAUGUUACGCCGUUCGGAUCUGCACUUC; result = -2.08
Oligonucleotide = AAGUCCUGUGCUACACAUCGUAUGUACCGAAUCGGGGAAAGGGGAAAGGGGAGGGGAAAGUAUUAUGUUACGCCGUUCGGAUCUGCACUU; result = 0.583
Oligonucleotide = UAACUUUAGAGGAGUAUCUGAUGGAUAUGGCAGUGGACGUGGAUUUGGGGAUGGCUAUAAUGGGUAUGGAGGAGGACCUGGAGGUGGCAA; result = 0.172
Oligonucleotide = AAGUCCUGUGCUACACAUCGUAUGUACCGAAUCGGGCCCCGGCCCCGGGGCCCCGGGAAAGUAUUAUGUUACGCCGUUCGGAUCUGCACU; result = -2.82
Oligonucleotide = CCUGUGCUACACAUCGUAUGUACCGAAUCGGGGUUUUUUGGGGUUUUUUGGUUUUUUGGGGAAAGUAUUAUGUUACGCCGUUCGGAUCUG; result = -0.422

Series 5 — target: CCND2, cyclin fold, Cln2 fusion (human); method: yeast growth competition, sequencing; medium: yeast; notes: weak parent motif; reference: not given; direction: higher = stronger binding; endpoint: normalised enrichment score
Starting sequence: CDKN1B docking peptide (human); PSACRNLFGPVDH
Variant = N6F; result = -0.0889
Variant = G9E; result = 0.245
Variant = D12L; result = 0.113
Variant = H13K; result = 0.191
Variant = H13L; result = 0.099
Variant = H13V; result = -0.0593
Variant = A3C; result = -0.0175
Variant = G9N; result = 0.296
Variant = D12W; result = 0.246
Variant = H13M; result = 0.0494
Variant = F8N; result = 0.204
Variant = S2F; result = 0.335
Variant = P1D; result = -0.232
Variant = F8R; result = 0.193
Variant = D12T; result = 0.468
Variant = C4S; result = 0.179
Variant = G9L; result = 0.272
Variant = A3S; result = 0.264
Variant = V11G; result = 0.303

For quick reference, copied from above (series 5):
Variant = G9E; result = 0.245
Variant = H13M; result = 0.0494
Variant = N6F; result = -0.0889
Variant = A3S; result = 0.264
Variant = D12T; result = 0.468
Variant = F8N; result = 0.204
Variant = H13L; result = 0.099
Variant = D12L; result = 0.113
Variant = A3C; result = -0.0175
Variant = H13V; result = -0.0593
Variant = P1D; result = -0.232
